Measured values of several laboratories.
± gives the spread as reported.
Proline--tRNA ligase: Proline--tRNA ligase (Plasmodium falciparum, UniProt Q8I5R7)

CC[C@H](C)[C@H](NC(=O)[C@H](CCC(N)=O)NC(=O)[C@@H](NC(=O)[C@@H]1CCCN1[C@@H]1CN(C(=O)[C@H](CCCCN)NC(=O)[C@H](CC(N)=O)NC(=O)[C@@H](NC(=O)[C@@H](NC(=O)[C@H](CCC(N)=O)NC(=O)[C@@H](N)C(C)C)[C@@H](C)CC)[C@@H](C)CC)CC[C@H]1NS(=O)(=O)c1ccc(C)cc1)C(C)C)C(=O)N[C@H](C(=O)N[C@@H](Cc1ccc(O)cc1)C(=O)N[C@@H](CCCCN)C(N)=O)C(C)C
fibrillization inhibition (IAPP (Homo sapiens, UniProt P10997); inhibitor, ThT fluorescence; 1-fold over protein, pH 7.4, room temperature, with: IAPP 5 µM): inactive

Cc1ncsc1-c1ccc([C@@H]2CCCCCCNC(=O)C[C@@H]3N=C(c4ccc(cc4)OCCCCC(=O)N[C@@H](C(C)(C)C)C(=O)N4C[C@H](O)C[C@H]4C(=O)N2)c2c(sc(C)c2C)-n2c(C)nnc23)cc1
degradation (Bromodomain-containing protein 4, short isoform (BRD4, Homo sapiens, UniProt O60885); degrader, immunoblotting, refers to: BRD4 short isoform; PC-3; 100 nM, 24 h): 95%

COc1ccc(-c2cc(C(F)(F)F)nc(S(=O)(=O)CCCC(=O)Nc3ccc(F)cc3F)n2)cc1OC
efficacy increase (Glucagon-like peptide 1 receptor (Rattus norvegicus, UniProt P32301); cAMP accumulation, positive allosteric modulator; INS-1 832/13; 25 µM, with: GLP-1(9-36)): 84%

CCCC[C@H](NC(=O)COCC(=O)NCCCOCCOCCOCCCNC(=O)COCC(=O)NCCCOCCOCCOCCCNC(=O)[C@H](Cc1c[nH]c2ccccc12)NC(=O)[C@H](CCCNC(=N)N)NC(=O)[C@@H](Cc1ccccc1)NC(=O)[C@H](Cc1c[nH]cn1)NC(=O)[C@H](CCC(=O)O)NC(=O)[C@H](CCCC)NC(=O)[C@H](CO)NC(C)=O)C(=O)NCC(=O)N[C@@H](Cc1c[nH]c2ccccc12)C(=O)N[C@@H](CCCC)C(=O)N[C@@H](CC(=O)O)C(=O)N[C@@H](Cc1ccccc1)C(N)=O
IC50 ratio (CCKBR/MC4R (Homo sapiens, UniProt P32239+P32245); bivalent binding; cells expressing CCK2R and MC4R; with: Eu-DTPA-CCK-8; relative to: single- over dual-expressing cells): 11 fold

C[C@@H]1O[C@@H](OC[C@H]2O[C@@H](Oc3c(-c4ccc(O)cc4)oc4cc(O)cc(O)c4c3=O)[C@H](O)[C@@H](O)[C@@H]2O)[C@H](O)[C@H](O)[C@H]1O
induction (Peroxisome proliferator-activated receptor gamma (Rattus norvegicus, UniProt O88275); reporter gene, agonist, luciferase; HepG2; 50 µg/mL): 2.31

COc1cncc(-c2cc(F)cc(CNC(=O)c3cc(N4CC[C@@](C#N)(C5CC5)C4=O)cc(C)n3)c2)c1
melting temperature (Proline--tRNA ligase; thermal shift; with: L-proline 2 mM): 78.4 °C

CC(C)CN(CC(C)C)C(=O)/C=C/C=C/c1ccc2c(c1)OCO2
Emax (Gabra2/Gabrb2, with γ2S subunit (Rattus norvegicus, UniProt P23576+P63138); GABA current potentiation, positive modulator, two-electrode voltage clamp; Xenopus oocytes expressing α2β2γ2S; with: GABA EC3-7): 572 ± 51%

Cc1cc(N2CCC(CO)(C3CC3)C2=O)cc(C(=O)NCc2cc(F)cc(-c3cnn(C)c3)c2)n1 (centres unmarked)
melting temperature (Proline--tRNA ligase; thermal shift; with: L-proline and ATP 2 mM): 75.7 °C

NC(=O)CN1C(=O)C(O)(CC(=O)c2cccc(N)c2)c2ccccc21 (centres unmarked)
ΔG (uncharacterized protein (Leishmania donovani, UniProt A0A3Q8IA09); ITC): -8.02 kcal/mol

C=CC(C)(C)OC[C@H]1O[C@H](O[C@@H]2C3=C([C@H](C)COC(C)=O)C[C@H](O)[C@]3(C)/C=C3/[C@@H](COC)CC[C@H]3[C@@H](C)[C@H]2O)[C@H](O)[C@@H](OC(C)=O)[C@@H]1O
threshold concentration (14-3-3 protein gamma, with p65 peptide (YWHAG, Homo sapiens, UniProt P61981); ternary complex formation, 2D fluorescence anisotropy titration): 10 µM

O=C(Cn1c2ccccc2c2ccccc21)N(c1ccc(F)cc1)c1ccc(F)cc1
maximum fold increase (Proteasome subunit alpha type-2/Proteasome subunit alpha type-6, 20S proteasome (Homo sapiens, UniProt P25787+P60900); proteolysis, activator, fluorogenic peptide; purified 20S proteasome; up to 30 µM, with: Suc-LLVY-AMC, Z-LLE-AMC, Boc-LRR-AMC; relative to: vehicle): 5.1 ± 1.1

[11CH3]Nc1ccc(-c2nc3ccc(O)cc3o2)cn1
distribution volume ratio (APP (Homo sapiens, UniProt P05067); binding, PET, reference Logan; control subjects, parietal cortex; relative to: cerebellum): 0.94 ± 0.08

CC(C)C[C@H](NC(=O)CNC(=O)[C@H](CC(C)C)NC(=O)[C@@H]1CCCN1C(=O)CNC(=O)[C@@H](N)Cc1ccccc1)C(=O)N[C@@H](CCCNC(=N)N)C(=O)N[C@@H](CO)C(=O)N[C@@H](CCCCN)C(=O)O
hydrolysis product (MMP9 (Homo sapiens, UniProt P14780); substrate, HPLC; 500 µM, 72 h, pH 7.5, 37 °C): 96%

O=c1c2ccccc2n(CC2CC2)c(=O)n1O
Kiu (Flap endonuclease 1 (Homo sapiens, UniProt P39748); inhibitor; mixed inhibition, with: double-flap substrate DF1): 306 ± 125 nM

CCC(C)/C=C/C(C)=C\C=C\C(C)=C\C=O (centres unmarked)
absorption maximum (Rhodopsin, apoprotein (opsin) (RHO, Bos taurus, UniProt P02699); pigment regenerated): 460 nm

Nc1ncnc2c1ncn2[C@@H]1O[C@@H]2COP(=O)(O)O[C@H]3[C@@H](O)[C@H](n4cnc5cncnc54)O[C@@H]3COP(=O)(O)O[C@H]2[C@H]1O
ΔΔG binding (ydaO riboswitch wild type (Bacillus subtilis); competition gel-shift; concentration not given; relative to: c-di-AMP): 2.1 kcal/mol

O=C(CSc1nc2ccccc2s1)Nc1nonc1[N+](=O)[O-]
onset of degradation (Protein max (MAX, Homo sapiens, UniProt P61244); degrader, Western blot; Ramos): ~2 h

CN(C)c1ccc(/C=C2\Oc3cc(O)ccc3C2=O)cc1
shift of aggregation temperature (ERO1-like protein alpha (Homo sapiens, UniProt Q96HE7); CETSA; PC-9; 100 µM, 1 h): ~6 °

COc1ccc(S(=O)(=O)n2nc(OC(=O)c3ccccc3)cc2N)cc1
protein mass shift (Genome polyprotein, NS2B-NS3 protease (dengue virus type 2, UniProt P29990); ESI-TOF MS; 20 µM, 1 h, 25 °C; relative to: DMSO control): 104 Da

CC(/C=C/C(=O)NO)=C\[C@@H](C)C(=O)c1ccc(N(C)C)cc1
binding enthalpy (ΔH) (HDAC8 (Homo sapiens, UniProt Q9BY41); isothermal titration calorimetry; concentration not given, pH 7.5, 25 °C): -8.93 ± 0.5 kcal/mol

CC(C)CC(NC(=O)C(NC(=O)NC(C(=O)O)C(C)C)C1CCNC(=N)N1)C(=O)NCCCNC(C(=O)O)C(OC1OC(CN)C(O)C1O)C1OC(n2ccc(=O)[nH]c2=O)C(O)C1O (centres unmarked)
ΔH (mraY (Aquifex aeolicus, UniProt O66465, T75A); ITC; T75A mutant): -11.7 ± 0.6 kcal/mol

O=C(O)Cc1ccc(O)cc1
ΔG (p-hydroxyphenylacetate 3-hydroxylase, reductase component (C1-hpah, Acinetobacter baumannii, UniProt Q6Q271); ITC; pH 7): -6.66 ± 0.2 kcal/mol

CC(C)C[C@H](NC(=O)CN)C(=O)NCC(=O)N1CCC[C@H]1C(=O)N[C@@H](CCCNC(=N)N)C(=O)N1CCC[C@H]1C(=O)N[C@@H](CC(C)C)C(=O)N[C@@H](CCCNC(=N)N)C(=O)N[C@@H](Cc1ccccc1)C(=O)O
receptor activation (Putative neuropeptide Y receptor 11 (npr-11, Caenorhabditis elegans, UniProt Q18179); agonist, cAMP reporter gene; concentration not given): inactive

CSCC[C@H](NC(=O)[C@H](CCCCN)NC(=O)[C@H](CO)NC(=O)[C@H](CC(C)C)NC(=O)[C@H](Cc1c[nH]cn1)NC(=O)[C@H](CCCNC(=N)N)NC(=O)[C@H](CCC(=O)O)NC(=O)[C@H](CCC(=O)O)NC(=O)[C@@H]1CCCN1C(=O)[C@@H](NC(=O)[C@@H](NC(=O)[C@H](C)NC(=O)[C@H](C)NC(=O)[C@H](CC(=O)O)NC(=O)[C@@H](NC(=O)[C@H](CCC(=O)O)NC(=O)[C@@H](NC(=O)[C@@H](NC(=O)CN)C(C)C)C(C)C)C(C)C)C(C)C)[C@@H](C)OP(=O)(O)O)C(=O)N[C@@H](CCC(N)=O)C(=O)N[C@@H](CCC(N)=O)C(=O)N[C@@H](CC(N)=O)C(=O)NCC(=O)N[C@@H](Cc1ccc(O)cc1)C(=O)O
kon (Peptidyl-prolyl cis-trans isomerase NIMA-interacting 1, WW domain (PIN1, Homo sapiens, UniProt Q13526); binding, NMR lineshape; WW domain; 25 °C, trans isomer): 9.1e+07 M⁻¹ s⁻¹

Nc1ncnc2c1ncn2[C@@H]1O[C@H](CO)[C@@H](O[C@H]2O[C@H](CO)[C@@H](OP(=O)(O)O)[C@H](OP(=O)(O)O)[C@H]2O)[C@H]1O
fold loss of affinity (Inositol 1,4,5-trisphosphate-gated calcium channel ITPR1, IP3-binding core (Itpr1, Rattus norvegicus, UniProt P29994, R504Q); binding, 3H-IP3 competition; IP3-binding core; relative to: R504Q over wild type): 35 fold

CC[C@H](C)[C@H](NC(=O)[C@H](CCCCN)NC(=O)[C@H](CCCCN)NC(=O)[C@@H](NC(=O)[C@H](CCC(=O)O)NC(=O)[C@H](CCC(=O)O)NC(=O)[C@H](C)NC(=O)[C@H](CO)NC(=O)[C@H](CC(C)C)NC(=O)[C@H](CC(=O)O)NC(=O)[C@H](CC(C)C)NC(=O)CNC(=O)[C@H](CCCNC(=N)N)NC(=O)[C@H](CC(C)C)NC(=O)[C@H](CO)NC(=O)CNC(=O)CNC(=O)CNC(=O)CCCC[C@@H]1SC[C@@H]2NC(=O)N[C@@H]21)C(C)C)C(=O)N[C@@H](CC(C)C)C(=O)N[C@@H](CC(=O)O)C(=O)N[C@@H](CCC(=O)O)C(=O)N[C@H](C(=O)N[C@H](C(=O)N[C@@H](CCCCN)C(=O)N[C@@H](CC(=O)O)C(=O)O)C(C)C)[C@@H](C)CC
Kd ratio (Fab B11 antibody (human); binding, biolayer interferometry; relative to: alanine mutant over wild type): 4.2

CC(C)C[C@H](NC(=O)[C@H](CC(C)C)NC(=O)[C@H](CCCNC(=N)N)NC(=O)[C@@H](N)CS)C(=O)O
remaining activity (PPO3 (Agaricus bisporus, UniProt C7FF04); enzyme activity, inhibitor; 25 µM): 82%

Cc1ncsc1-c1ccc(CNC(=O)[C@@H]2C[C@@H](O)CN2C(=O)[C@@H](NC(=O)COCCOCCOCCNC(=O)C[C@@H]2N=C(c3ccc(Cl)cc3)c3c(sc(C)c3C)-n3c(C)nnc32)C(C)(C)C)cc1
cooperativity (VHL/BRD3, BD2; with Elongin B/C (Homo sapiens, UniProt P40337+Q15059); ITC; 25 °C, ternary complex with VCB, BRD3 BD2; relative to: binary Kd over ternary Kd): 11

CC(=O)N[C@@H](CCCNC(=N)N)C(=O)N[C@@H](CCCCN)C(=O)N[C@@H](CCCCN)C(=O)N[C@@H](Cc1ccc(O)cc1)C(=O)N[C@@H](CCCCN)C(=O)N[C@@H](Cc1ccccc1)C(=O)N[C@@H](CC(N)=O)C(=O)N[C@@H](CCC(=O)O)C(=O)N[C@@H](CC(=O)O)C(=O)N[C@H](C(=O)N[C@@H](CCC(=O)O)C(=O)N[C@@H](CCCNC(=N)N)C(=O)N[C@@H](CCCNC(=N)N)C(=O)N[C@@H](CCCNC(=N)N)C(=O)N[C@@H](Cc1ccccc1)C(=O)N[C@@H](CC(C)C)C(N)=O)[C@@H](C)O
Km (EEF2K (Homo sapiens, UniProt O00418); substrate): 393 ± 40 µM

Excerpt of the above:
CCCC[C@H](NC(=O)COCC(=O)NCCCOCCOCCOCCCNC(=O)COCC(=O)NCCCOCCOCCOCCCNC(=O)[C@H](Cc1c[nH]c2ccccc12)NC(=O)[C@H](CCCNC(=N)N)NC(=O)[C@@H](Cc1ccccc1)NC(=O)[C@H](Cc1c[nH]cn1)NC(=O)[C@H](CCC(=O)O)NC(=O)[C@H](CCCC)NC(=O)[C@H](CO)NC(C)=O)C(=O)NCC(=O)N[C@@H](Cc1c[nH]c2ccccc12)C(=O)N[C@@H](CCCC)C(=O)N[C@@H](CC(=O)O)C(=O)N[C@@H](Cc1ccccc1)C(N)=O
IC50 ratio (CCKBR/MC4R (Homo sapiens, UniProt P32239+P32245); bivalent binding; cells expressing CCK2R and MC4R; with: Eu-DTPA-CCK-8; relative to: single- over dual-expressing cells): 11 fold

C[C@@H]1O[C@@H](OC[C@H]2O[C@@H](Oc3c(-c4ccc(O)cc4)oc4cc(O)cc(O)c4c3=O)[C@H](O)[C@@H](O)[C@@H]2O)[C@H](O)[C@H](O)[C@H]1O
induction (Peroxisome proliferator-activated receptor gamma (Rattus norvegicus, UniProt O88275); reporter gene, agonist, luciferase; HepG2; 50 µg/mL): 2.31

COc1cncc(-c2cc(F)cc(CNC(=O)c3cc(N4CC[C@@](C#N)(C5CC5)C4=O)cc(C)n3)c2)c1
melting temperature (Proline--tRNA ligase; thermal shift; with: L-proline 2 mM): 78.4 °C
